Measurements collected from several papers.
Values joined by “and” are separate records of one study, mostly repeats; a detail may differ.
Voltage-dependent P/Q-type calcium channel subunit alpha-1A: Voltage-dependent P/Q-type calcium channel subunit alpha-1A (Homo sapiens, UniProt O00555)
UCHL1: Ubiquitin carboxyl-terminal hydrolase isozyme L1 (UCHL1, Homo sapiens, UniProt P09936)

Compound	target	test	system	conditions	quantity	value
Cc1cc(-c2ccnc3[nH]cc(F)c23)cc(F)c1[C@@]1(O)[C@H](C)CN(C(=O)CN)C[C@@H]1C	LATS1 (Homo sapiens, UniProt O95835)	ATP probe binding, KiNativ, measured: Lys2 site	HEK293T cell lysate	10 µM	inhibition	94.5%
O=C(O)C(O)C(O)C(=O)O.c1cnc2cc3c(cc2n1)[C@@H]1CNC[C@H]3C1	Voltage-dependent P/Q-type calcium channel subunit alpha-1A	ion current, antagonist		10 µM	inhibition	-5%
Cc1cc(-c2ccnc3[nH]cc(F)c23)cc(F)c1[C@@]1(O)[C@H](C)CN(C2CCS(=O)(=O)CC2)C[C@@H]1C	LATS2 (Homo sapiens, UniProt Q9NRM7)	ATP probe binding, KiNativ, measured: Lys2 site	HEK293T cell lysate	1 µM	inhibition	84.8%
[2H]c1cc(C)c(NC(=O)c2cnc(Nc3cc(N4CCCCC4)nc(C)n3)s2)c(Cl)c1	PDGFRA (Homo sapiens, UniProt P16234)			0.001 µM	inhibition	> 50%
O=C(O)Cc1ccccc1Nc1c(Cl)cccc1Cl	Voltage-dependent P/Q-type calcium channel subunit alpha-1A	ion current, antagonist	HEK293	3 µM	inhibition	-4%
COc1ccc(F)cc1C(=O)NCc1ccc(-c2nn([C@@H](C)C(F)(F)F)c(N)c2C(N)=O)cc1	TEC (Homo sapiens, UniProt P42680)	target engagement, competitive chemoproteomics	human PBMCs	0.01 µM	inhibition	23%
CC[C@@H]1[C@H](F)C(=O)N[C@@H]1COc1nccc2cc(C(N)=O)c(OC)cc12	STK38L (Homo sapiens, UniProt Q9Y2H1)	ATP-site probe binding, ActivX profiling	THP-1 cell lysate	0.2 mM, Lys2 site	inhibition	18.4%
CC(Cl)C(=O)N1CCCN(C(=O)c2cc(Cl)cn2C)CC1 (centres unmarked)	UCHL1	covalent, intact protein LC-MS		12.5 µM	labelling	8.55%
COc1ccc2c3c1O[C@H]1C[C@@H](O)C=C[C@@]31CCN(C)C2	Voltage-dependent P/Q-type calcium channel subunit alpha-1A	ion current, antagonist	HEK293	10 µM	inhibition	-3%
CC(NC(=O)C(C#N)=Cc1cc(F)ccc1F)c1ccccc1 (centres unmarked)	UCHL1	covalent, intact protein LC-MS		12.5 µM	labelling	27.6%
O=C(Nc1cccc2c(=O)cc(-c3nnn[nH]3)oc12)c1ccc(OCCCCc2ccccc2)cc1	Volume-regulated anion channel subunit LRRC8C, part LRRC8A IL1 chimera (LRRC8C, Homo sapiens, UniProt Q8TDW0, Y126F)	ion current, inhibitor, whole-cell patch clamp	HCT LRRC8-/- cells	0.1 µM, +100 mV	inhibition	17.8% and 37.8% and 13% and 31.4% and 16.7%

Repeated from above:
Compound	target	test	system	conditions	quantity	value
O=C(Nc1cccc2c(=O)cc(-c3nnn[nH]3)oc12)c1ccc(OCCCCc2ccccc2)cc1	Volume-regulated anion channel subunit LRRC8C, part LRRC8A IL1 chimera (LRRC8C, Homo sapiens, UniProt Q8TDW0, Y126F)	ion current, inhibitor, whole-cell patch clamp	HCT LRRC8-/- cells	0.1 µM, +100 mV	inhibition	17.8% and 37.8% and 13% and 31.4% and 16.7%
